Results of several laboratories.
Every numbered part comes from another study and shows a few of its results, in no order.
Chain of UniProt P41143 (whole entry, looked up): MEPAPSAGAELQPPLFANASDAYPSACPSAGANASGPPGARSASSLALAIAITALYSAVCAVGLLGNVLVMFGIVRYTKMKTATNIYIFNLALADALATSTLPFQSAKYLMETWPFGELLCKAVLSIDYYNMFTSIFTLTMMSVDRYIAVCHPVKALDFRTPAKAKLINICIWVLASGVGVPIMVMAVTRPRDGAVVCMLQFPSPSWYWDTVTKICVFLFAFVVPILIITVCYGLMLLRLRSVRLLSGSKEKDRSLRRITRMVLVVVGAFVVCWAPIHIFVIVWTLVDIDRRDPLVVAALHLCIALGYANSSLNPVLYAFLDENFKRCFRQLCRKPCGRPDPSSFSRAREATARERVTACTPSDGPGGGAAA
Chain of UniProt P08908 (whole entry, looked up): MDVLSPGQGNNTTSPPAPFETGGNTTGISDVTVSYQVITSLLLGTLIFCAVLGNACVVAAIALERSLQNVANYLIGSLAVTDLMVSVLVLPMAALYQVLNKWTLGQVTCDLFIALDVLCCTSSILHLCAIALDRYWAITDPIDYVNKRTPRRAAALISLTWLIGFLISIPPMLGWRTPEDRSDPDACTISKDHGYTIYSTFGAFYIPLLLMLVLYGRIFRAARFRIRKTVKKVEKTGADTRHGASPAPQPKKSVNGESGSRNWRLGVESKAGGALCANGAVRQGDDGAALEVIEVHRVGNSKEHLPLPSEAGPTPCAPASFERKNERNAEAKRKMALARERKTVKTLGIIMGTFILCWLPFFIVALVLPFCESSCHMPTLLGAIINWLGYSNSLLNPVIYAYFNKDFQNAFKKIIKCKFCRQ
Chain of UniProt P61075 (whole entry, looked up): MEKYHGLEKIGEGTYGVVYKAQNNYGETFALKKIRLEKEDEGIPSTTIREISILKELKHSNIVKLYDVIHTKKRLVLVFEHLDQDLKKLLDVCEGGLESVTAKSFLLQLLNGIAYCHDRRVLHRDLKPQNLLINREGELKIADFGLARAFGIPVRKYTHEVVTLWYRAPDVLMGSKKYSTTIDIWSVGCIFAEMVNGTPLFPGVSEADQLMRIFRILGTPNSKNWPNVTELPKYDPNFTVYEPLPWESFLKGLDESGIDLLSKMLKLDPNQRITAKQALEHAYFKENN
Chain of UniProt P9WI81 (whole entry, looked up): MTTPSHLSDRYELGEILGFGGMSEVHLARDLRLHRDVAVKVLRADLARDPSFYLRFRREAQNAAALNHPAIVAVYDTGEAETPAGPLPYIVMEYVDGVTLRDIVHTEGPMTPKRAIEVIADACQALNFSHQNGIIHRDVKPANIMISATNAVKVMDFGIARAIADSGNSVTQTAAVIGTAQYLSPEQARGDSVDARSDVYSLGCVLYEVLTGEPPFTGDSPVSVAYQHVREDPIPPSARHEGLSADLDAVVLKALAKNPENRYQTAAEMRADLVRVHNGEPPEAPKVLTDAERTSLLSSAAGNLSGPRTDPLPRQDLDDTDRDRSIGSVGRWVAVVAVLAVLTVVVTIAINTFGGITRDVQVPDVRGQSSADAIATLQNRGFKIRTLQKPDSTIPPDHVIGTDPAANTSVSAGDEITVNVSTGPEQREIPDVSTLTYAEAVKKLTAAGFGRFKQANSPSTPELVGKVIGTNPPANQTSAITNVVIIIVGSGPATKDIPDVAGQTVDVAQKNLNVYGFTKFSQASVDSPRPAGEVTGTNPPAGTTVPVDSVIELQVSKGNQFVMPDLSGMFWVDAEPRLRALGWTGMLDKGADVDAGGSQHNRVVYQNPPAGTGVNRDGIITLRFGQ

Sample 1
Organism: Sarcocystis neurona
Effect on: parasite growth
Concentration: 10 µM
Setting: second screen
Relative to: untreated
SMILES	log2 fold change
C[C@]12CC[C@H]3[C@@H](CCC4=CC(=O)CC[C@@H]43)[C@@H]1CC[C@@H]2O	-0.00721
Cl.O=C1[C@H]2CCCC[C@H]2C(=O)N1CCCCN1CCN(c2nsc3ccccc23)CC1	-3.59
CCCCC/C=C\C/C=C\C/C=C\C/C=C\CCCC(=O)Nc1ccc(O)cc1	0.04

Mixed results
ADRB1: Beta-1 adrenergic receptor (ADRB1, Homo sapiens, UniProt P08588)
Chain of UniProt P08588 (whole entry, looked up): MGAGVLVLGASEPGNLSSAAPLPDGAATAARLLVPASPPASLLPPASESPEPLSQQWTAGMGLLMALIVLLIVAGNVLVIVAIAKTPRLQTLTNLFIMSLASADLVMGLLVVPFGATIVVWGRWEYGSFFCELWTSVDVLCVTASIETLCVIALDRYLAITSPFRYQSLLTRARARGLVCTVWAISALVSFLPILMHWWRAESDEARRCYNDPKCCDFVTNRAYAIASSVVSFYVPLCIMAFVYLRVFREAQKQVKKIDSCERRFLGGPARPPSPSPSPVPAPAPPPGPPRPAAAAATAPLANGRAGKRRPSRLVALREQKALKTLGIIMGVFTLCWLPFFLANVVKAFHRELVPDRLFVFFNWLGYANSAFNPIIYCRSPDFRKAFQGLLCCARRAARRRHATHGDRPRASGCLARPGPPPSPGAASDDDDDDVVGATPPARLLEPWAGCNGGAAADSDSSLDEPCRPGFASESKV
SMILES	tested on	test	system	conditions	measurement	result
CCS(=O)(=O)c1cc2cc(C[C@@](O)(CC(C)(C)c3ccc(F)cc3C(N)=O)C(F)(F)F)[nH]c2cn1	Delta-type opioid receptor (OPRD1, Homo sapiens, UniProt P41143)	binding, radioligand binding		10 µM	inhibition	-3.88%
CN1C[C@@H](CO)C=C2c3cccc4[nH]cc(c34)C[C@@H]21	ADRB1	antagonist			IC50	≥ 100 µM
Cc1cc(NC(=O)c2cccc(S(F)(F)(F)(F)F)c2)cc(-n2ccn3nc(-c4cccnc4)cc23)c1	Serine/threonine-protein kinase PknB (pknB, Mycobacterium tuberculosis, UniProt P9WI81)	cell-free assay, competition with immobilised ligand		1 µM	remaining binding	63.7%
COc1cc(/C=C2\C(=O)N=C(O)N=C2O)ccc1OCc1ccc(Cl)cc1			human, microsomes or S9	2 µM, 0.5 h	remaining compound	94.4%
COc1nc2ccc([C@@](O)(c3ccccc3)C3CCN(C(C)=O)CC3)cc2c(Cl)c1Cc1ccc(-n2cccn2)cc1	5-hydroxytryptamine receptor 1A (HTR1A, Homo sapiens, UniProt P08908)	binding, radioligand binding		10 µM	inhibition	16.6%
CC(=O)Nc1cccc(C2(C)C(=O)N(C)C(=O)N(C)C2=O)c1			human, microsomes or S9	2 µM, 0.5 h	remaining compound	> 99%
CCC(=N\O)/C(C)=C/c1ccc(F)cc1	Cyclin-dependent kinase 2 homolog (CRK2, Plasmodium falciparum, UniProt P61075)	cell-free assay, competition with immobilised ligand		1 µM	remaining binding	84%
O=C(O)c1ccc2[nH]cc(CCCCN3CC=C(c4ccccc4)CC3)c2c1	ADRB1	antagonist			IC50	≥ 100 µM

Some of these lines once more (mixed results):
SMILES	tested on	test	system	conditions	measurement	result
CCS(=O)(=O)c1cc2cc(C[C@@](O)(CC(C)(C)c3ccc(F)cc3C(N)=O)C(F)(F)F)[nH]c2cn1	Delta-type opioid receptor (OPRD1, Homo sapiens, UniProt P41143)	binding, radioligand binding		10 µM	inhibition	-3.88%
